Assay results from different studies.
Each numbered part is a random draw from the data of one study; scales do not carry over between parts. “And” joins repeats or separate records; there may be more than shown.
UniProt Q96NX5, sequence (whole entry, looked up): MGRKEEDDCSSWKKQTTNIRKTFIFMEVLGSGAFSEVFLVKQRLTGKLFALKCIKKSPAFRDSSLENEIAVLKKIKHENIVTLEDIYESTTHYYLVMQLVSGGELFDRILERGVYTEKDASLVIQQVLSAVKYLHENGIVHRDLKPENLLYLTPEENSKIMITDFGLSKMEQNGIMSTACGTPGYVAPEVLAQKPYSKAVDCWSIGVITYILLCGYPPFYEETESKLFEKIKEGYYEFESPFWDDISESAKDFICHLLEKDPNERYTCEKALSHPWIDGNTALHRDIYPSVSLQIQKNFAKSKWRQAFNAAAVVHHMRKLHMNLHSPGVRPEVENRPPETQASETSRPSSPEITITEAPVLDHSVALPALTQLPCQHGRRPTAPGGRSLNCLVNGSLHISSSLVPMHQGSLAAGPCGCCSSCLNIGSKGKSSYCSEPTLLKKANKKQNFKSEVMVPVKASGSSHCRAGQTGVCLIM
UniProt Q9H422, sequence (whole entry, looked up): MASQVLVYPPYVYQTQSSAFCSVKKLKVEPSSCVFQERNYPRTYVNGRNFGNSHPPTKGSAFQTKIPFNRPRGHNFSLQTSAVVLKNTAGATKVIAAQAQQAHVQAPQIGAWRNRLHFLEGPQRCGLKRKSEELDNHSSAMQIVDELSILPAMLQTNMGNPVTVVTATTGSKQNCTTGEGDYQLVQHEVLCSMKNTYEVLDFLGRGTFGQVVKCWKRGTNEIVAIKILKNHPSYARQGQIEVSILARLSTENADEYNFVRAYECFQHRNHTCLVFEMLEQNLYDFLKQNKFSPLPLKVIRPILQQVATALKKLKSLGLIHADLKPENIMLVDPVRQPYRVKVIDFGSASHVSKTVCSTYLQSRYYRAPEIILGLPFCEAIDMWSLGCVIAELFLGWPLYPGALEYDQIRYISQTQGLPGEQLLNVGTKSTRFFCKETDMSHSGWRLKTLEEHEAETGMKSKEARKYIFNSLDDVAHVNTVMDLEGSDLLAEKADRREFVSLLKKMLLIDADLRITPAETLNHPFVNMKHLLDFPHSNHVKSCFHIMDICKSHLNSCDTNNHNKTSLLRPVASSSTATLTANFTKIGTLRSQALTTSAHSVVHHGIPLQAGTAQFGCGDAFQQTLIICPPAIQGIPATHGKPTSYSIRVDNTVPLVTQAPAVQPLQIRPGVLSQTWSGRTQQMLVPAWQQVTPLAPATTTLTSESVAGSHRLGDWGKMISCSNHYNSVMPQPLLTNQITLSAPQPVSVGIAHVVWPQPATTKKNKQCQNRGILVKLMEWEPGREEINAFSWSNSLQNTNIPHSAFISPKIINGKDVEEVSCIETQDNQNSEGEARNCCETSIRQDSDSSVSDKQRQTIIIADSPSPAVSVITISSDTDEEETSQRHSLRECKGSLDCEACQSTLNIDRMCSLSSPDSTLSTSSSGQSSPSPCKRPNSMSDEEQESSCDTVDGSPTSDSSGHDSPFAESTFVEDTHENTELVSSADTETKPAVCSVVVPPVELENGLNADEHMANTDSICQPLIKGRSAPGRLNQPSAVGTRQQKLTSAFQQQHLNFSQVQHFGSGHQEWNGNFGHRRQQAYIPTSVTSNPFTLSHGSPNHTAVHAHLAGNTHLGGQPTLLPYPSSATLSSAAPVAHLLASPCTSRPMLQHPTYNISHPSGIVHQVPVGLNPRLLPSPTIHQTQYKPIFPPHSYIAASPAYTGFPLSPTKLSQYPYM
UniProt Q13535, sequence (whole entry, looked up): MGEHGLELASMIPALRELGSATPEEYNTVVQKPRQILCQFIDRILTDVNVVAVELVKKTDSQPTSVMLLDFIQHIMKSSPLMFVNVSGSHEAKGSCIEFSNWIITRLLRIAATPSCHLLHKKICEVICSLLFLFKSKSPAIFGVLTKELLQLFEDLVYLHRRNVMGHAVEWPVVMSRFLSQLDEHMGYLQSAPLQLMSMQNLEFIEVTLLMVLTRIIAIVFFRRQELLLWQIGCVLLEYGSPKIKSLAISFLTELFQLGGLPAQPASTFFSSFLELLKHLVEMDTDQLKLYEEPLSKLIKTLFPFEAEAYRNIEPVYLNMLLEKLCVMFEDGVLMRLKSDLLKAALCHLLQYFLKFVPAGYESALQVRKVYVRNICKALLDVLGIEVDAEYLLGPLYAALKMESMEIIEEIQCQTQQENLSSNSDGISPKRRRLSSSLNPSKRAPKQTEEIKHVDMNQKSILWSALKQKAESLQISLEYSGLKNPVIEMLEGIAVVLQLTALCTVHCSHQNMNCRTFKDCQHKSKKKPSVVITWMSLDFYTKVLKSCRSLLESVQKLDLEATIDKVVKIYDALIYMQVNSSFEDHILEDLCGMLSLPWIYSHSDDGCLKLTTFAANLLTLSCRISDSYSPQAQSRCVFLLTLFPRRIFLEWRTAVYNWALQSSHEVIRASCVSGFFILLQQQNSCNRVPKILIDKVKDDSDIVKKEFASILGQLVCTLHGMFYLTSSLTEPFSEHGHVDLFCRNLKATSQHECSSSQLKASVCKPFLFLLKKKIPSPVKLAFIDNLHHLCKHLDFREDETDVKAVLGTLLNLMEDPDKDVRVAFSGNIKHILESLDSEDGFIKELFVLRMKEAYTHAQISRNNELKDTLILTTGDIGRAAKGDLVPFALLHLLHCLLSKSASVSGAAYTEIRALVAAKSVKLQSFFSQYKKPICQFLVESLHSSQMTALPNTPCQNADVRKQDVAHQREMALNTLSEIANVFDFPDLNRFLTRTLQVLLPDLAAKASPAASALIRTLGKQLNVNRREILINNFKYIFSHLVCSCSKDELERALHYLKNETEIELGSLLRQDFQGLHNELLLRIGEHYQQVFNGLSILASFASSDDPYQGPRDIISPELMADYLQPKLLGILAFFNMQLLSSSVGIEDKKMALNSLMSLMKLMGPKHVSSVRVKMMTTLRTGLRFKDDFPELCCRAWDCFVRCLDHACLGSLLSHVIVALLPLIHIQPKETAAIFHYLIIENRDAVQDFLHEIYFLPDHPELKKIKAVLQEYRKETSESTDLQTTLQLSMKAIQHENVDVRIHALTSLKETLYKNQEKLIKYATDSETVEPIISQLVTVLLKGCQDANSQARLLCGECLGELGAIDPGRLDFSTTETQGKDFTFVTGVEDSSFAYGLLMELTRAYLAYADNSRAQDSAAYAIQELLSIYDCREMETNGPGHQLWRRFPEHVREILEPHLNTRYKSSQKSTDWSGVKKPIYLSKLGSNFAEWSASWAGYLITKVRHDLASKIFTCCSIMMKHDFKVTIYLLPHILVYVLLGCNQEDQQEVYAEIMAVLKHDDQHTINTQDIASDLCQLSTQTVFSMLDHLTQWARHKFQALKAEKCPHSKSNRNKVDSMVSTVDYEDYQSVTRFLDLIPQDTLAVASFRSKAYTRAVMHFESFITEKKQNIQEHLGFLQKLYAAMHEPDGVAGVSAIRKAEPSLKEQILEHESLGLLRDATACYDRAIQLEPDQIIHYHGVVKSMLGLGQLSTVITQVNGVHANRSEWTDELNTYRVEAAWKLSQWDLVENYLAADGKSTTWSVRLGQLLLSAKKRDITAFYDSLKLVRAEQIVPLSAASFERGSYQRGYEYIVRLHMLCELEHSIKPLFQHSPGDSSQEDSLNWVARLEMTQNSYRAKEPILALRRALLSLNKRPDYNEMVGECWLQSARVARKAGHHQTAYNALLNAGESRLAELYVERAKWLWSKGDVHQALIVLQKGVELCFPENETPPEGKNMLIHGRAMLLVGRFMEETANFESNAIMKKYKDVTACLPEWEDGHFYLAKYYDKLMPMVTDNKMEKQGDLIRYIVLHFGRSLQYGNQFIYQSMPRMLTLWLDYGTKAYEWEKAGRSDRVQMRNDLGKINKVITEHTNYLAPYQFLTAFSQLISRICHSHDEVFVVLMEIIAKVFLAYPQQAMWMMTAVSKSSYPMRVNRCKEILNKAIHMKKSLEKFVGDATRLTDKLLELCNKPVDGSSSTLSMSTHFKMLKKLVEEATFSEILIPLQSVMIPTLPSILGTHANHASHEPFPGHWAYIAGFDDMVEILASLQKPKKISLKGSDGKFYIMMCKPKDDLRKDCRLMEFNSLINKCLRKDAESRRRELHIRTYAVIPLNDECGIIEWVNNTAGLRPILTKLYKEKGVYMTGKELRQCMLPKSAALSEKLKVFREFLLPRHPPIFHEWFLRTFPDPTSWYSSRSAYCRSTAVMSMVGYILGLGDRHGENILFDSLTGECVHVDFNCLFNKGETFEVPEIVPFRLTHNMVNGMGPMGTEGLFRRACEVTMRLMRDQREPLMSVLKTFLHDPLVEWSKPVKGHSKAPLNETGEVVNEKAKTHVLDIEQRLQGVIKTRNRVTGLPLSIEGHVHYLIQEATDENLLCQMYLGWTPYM
UniProt P37173, sequence (whole entry, looked up): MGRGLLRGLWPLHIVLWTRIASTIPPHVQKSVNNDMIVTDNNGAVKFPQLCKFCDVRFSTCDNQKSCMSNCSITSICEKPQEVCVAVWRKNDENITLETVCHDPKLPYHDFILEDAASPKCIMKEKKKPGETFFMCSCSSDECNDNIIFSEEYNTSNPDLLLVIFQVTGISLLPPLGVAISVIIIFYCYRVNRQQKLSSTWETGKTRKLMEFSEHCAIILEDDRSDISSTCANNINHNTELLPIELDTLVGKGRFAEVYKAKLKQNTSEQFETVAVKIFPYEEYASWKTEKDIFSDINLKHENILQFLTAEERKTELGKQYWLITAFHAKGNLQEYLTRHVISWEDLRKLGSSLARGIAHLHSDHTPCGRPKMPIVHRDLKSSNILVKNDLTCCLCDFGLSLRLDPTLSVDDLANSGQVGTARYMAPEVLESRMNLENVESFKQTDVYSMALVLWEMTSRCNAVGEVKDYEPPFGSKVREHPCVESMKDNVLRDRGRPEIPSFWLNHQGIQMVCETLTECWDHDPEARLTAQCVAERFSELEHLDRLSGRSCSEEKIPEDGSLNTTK

Block 1
Structure (SMILES): Cc1cncc2cccc(S(=O)(=O)N3CCCN(C(=O)CN)C[C@@H]3C)c12
Read-out: enzyme activity
Action: inhibitor
Concentration: 0.5 µM
Baseline: control
NTRK3 (Homo sapiens, UniProt Q16288) — remaining activity: 87.5%.
For NEK9 (Homo sapiens, UniProt Q8TD19): remaining activity read 98.6%.
For PTK2B (Homo sapiens, UniProt Q14289): remaining activity read 92.5%.
For MAP3K8 (Homo sapiens, UniProt P41279): remaining activity read 99.9%.
For CAMK1D (Homo sapiens, UniProt Q8IU85): remaining activity read 104%.
It gave 98.7% for remaining activity (EGFR (Homo sapiens, UniProt P00533)).
For MAP3K2 (Homo sapiens, UniProt Q9Y2U5): remaining activity read 92.1%.
The remaining activity was 105% (DMPK (Homo sapiens, UniProt Q09013)).
For MAPK10 (Homo sapiens, UniProt P53779): remaining activity read 103%.
For DYRK4 (Homo sapiens, UniProt Q9NR20): remaining activity read 90.3%.
For HIPK3 (Homo sapiens, UniProt Q9H422): remaining activity read 105%.
For ROS1 (Homo sapiens, UniProt P08922): remaining activity read 60.3%.
CSNK2A2 (Homo sapiens, UniProt P19784) — remaining activity: 99.3%.
It gave 94.6% for remaining activity (CAMK1G (Homo sapiens, UniProt Q96NX5)).
It gave 96.7% for remaining activity (PRKD1 (Homo sapiens, UniProt Q15139)).
Aurora kinase A (AURKA, Homo sapiens, UniProt O14965) — remaining activity: 64.7%.
For Cyclin-dependent kinase 2, with cyclin A (CDK2, Homo sapiens, UniProt P24941): remaining activity read 98.4%.
For RET (Homo sapiens, UniProt P07949): remaining activity read 94.4%.
The remaining activity was 74.7% (PKN2 (Homo sapiens, UniProt Q16513)).
For BRSK1 (Homo sapiens, UniProt Q8TDC3): remaining activity read 94.2%.
CDK7 (Homo sapiens, UniProt P50613) — remaining activity: 98%.
For SLK (Homo sapiens, UniProt Q9H2G2): remaining activity read 90.4%.
GRK5 (Homo sapiens, UniProt P34947) — remaining activity: 97.1%.

Block 2
Structure (SMILES): Cc1cc(C)c(-n2ccn3nc(-c4cccnc4)cc23)cc1NC(=O)c1cc(C#N)cc(S(F)(F)(F)(F)F)c1
Concentration: 0.1 µM
Tyrosine-protein kinase ABL1, phosphorylated (ABL1, Homo sapiens, UniProt P00519, E255K); binding, competition with immobilised ligand — remaining binding: 74.5%.
For Tyrosine-protein kinase ABL1, phosphorylated (ABL1, Homo sapiens, UniProt P00519, F317I); binding: remaining binding read 76.4%.
For WEE1 (Homo sapiens, UniProt P30291); cell-free assay, competition with immobilised ligand: remaining binding read 100%.
For EPHA8 (Homo sapiens, UniProt P29322); cell-free assay, competition with immobilised ligand: remaining binding read 83.5%.
It gave 100% for remaining binding (Tyrosine-protein kinase JAK1, JH1 (JAK1, Homo sapiens, UniProt P23458); cell-free assay, competition with immobilised ligand).
For Tyrosine-protein kinase ABL1, non-phosphorylated (ABL1, Homo sapiens, UniProt P00519, F317L); cell-free assay, competition with immobilised ligand: remaining binding read 26.6%.
For KIT (Homo sapiens, UniProt P10721, L576P); cell-free assay, competition with immobilised ligand: remaining binding read 40.7%.
STK24 (Homo sapiens, UniProt Q9Y6E0); cell-free assay, competition with immobilised ligand — remaining binding: 75.9%.
CAMK1G (Homo sapiens, UniProt Q96NX5); cell-free assay, competition with immobilised ligand — remaining binding: 100%.
For ROCK2 (Homo sapiens, UniProt O75116); cell-free assay, competition with immobilised ligand: remaining binding read 66.2%.
MAP4K2 (Homo sapiens, UniProt Q12851); cell-free assay, competition with immobilised ligand — remaining binding: 53.1%.
It gave 91.8% for remaining binding (GRK2 (Homo sapiens, UniProt P25098); cell-free assay, competition with immobilised ligand).
Tyrosine-protein kinase ABL1, non-phosphorylated (ABL1, Homo sapiens, UniProt P00519, T315I); cell-free assay, competition with immobilised ligand — remaining binding: 33.4%.
MAP4K1 (Homo sapiens, UniProt Q92918); cell-free assay, competition with immobilised ligand — remaining binding: 100%.
For MAP3K11 (Homo sapiens, UniProt Q16584); cell-free assay, competition with immobilised ligand: remaining binding read 100%.
It gave 69.3% for remaining binding (FLT3 (Homo sapiens, UniProt P36888, F691L/ITD); cell-free assay, competition with immobilised ligand).
FER (Homo sapiens, UniProt P16591); cell-free assay, competition with immobilised ligand — remaining binding: 100%.
The remaining binding was 95.6% (AKT3 (Homo sapiens, UniProt Q9Y243); cell-free assay, competition with immobilised ligand).
It gave 75.2% for remaining binding (IRAK3 (Homo sapiens, UniProt Q9Y616); cell-free assay, competition with immobilised ligand).
It gave 80.7% for remaining binding (HIPK3 (Homo sapiens, UniProt Q9H422); cell-free assay, competition with immobilised ligand).
PHKG2 (Homo sapiens, UniProt P15735); cell-free assay, competition with immobilised ligand — remaining binding: 78.3%.
The remaining binding was 90.6% (GRK3 (Homo sapiens, UniProt P35626); cell-free assay, competition with immobilised ligand).
For CASK (Homo sapiens, UniProt O14936); cell-free assay, competition with immobilised ligand: remaining binding read 86.6%.
CDK18 (Homo sapiens, UniProt Q07002); cell-free assay, competition with immobilised ligand — remaining binding: 98.4%.

Block 3
Target: Diamine acetyltransferase 1 (Homo sapiens, UniProt P21673)
Action: inhibitor
Concentration: 10 µM
Baseline: control
Target sequence (P21673 1-171): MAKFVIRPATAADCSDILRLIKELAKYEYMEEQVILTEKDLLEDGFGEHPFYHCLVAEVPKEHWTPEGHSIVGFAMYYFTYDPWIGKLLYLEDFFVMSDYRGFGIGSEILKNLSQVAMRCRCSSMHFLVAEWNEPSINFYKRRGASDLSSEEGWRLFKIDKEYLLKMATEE
For `CCCCC1OC(=O)C2=CCCCC21` (centres unmarked), the remaining activity was 82.6%.
With `CC(=O)/C=C/C1=C(C)CCCC1(C)C` the remaining activity was 105%.
With `CCCCC/C=C/C(=O)O` the remaining activity was 91.5%.
`CC1=C(C=O)C(C)(C)CC=C1` has a remaining activity of 91%.
`O=C(/C=C/c1ccc(O)c(O)c1)OC[C@H]1O[C@@H](OCCc2ccc(O)c(O)c2)[C@H](O)[C@@H](O)[C@@H]1O` has a remaining activity of 105%.
With `C=C(C)[C@@H]1CC=C(C)C(=O)C1` the remaining activity was 88.8%.
`Cc1cc2nc3[nH]c(=O)[nH]c(=O)c3nc2cc1C` has a remaining activity of 102%.
The remaining activity of `CCc1ccc(O)cc1` is reported as 88.4%.
The remaining activity of `COc1ccc2c(c1OC)CN(C)c1c-2ccc2cc3c(cc12)OCO3` is reported as 102%.
`O=c1c(-c2ccc(O)cc2)coc2c([C@@H]3O[C@H](CO[C@@H]4OC[C@](O)(CO)[C@H]4O)[C@@H](O)[C@H](O)[C@H]3O)c(O)ccc12` has a remaining activity of 93%.
`O=c1ccc2c(O)cc(O)cc2o1` gave a remaining activity of 108%.
`CC(C)=CCC[C@@H](C)[C@H]1CC[C@@]2(C)C3=C(CC[C@]12C)[C@@]1(C)CC[C@H](O)C(C)(C)[C@@H]1CC3` has a remaining activity of 97.3%.

Block 4
Compound: CC(C)S(=O)(=O)c1ccc2nccc(Nc3ccc4sc(C5CCCC5)nc4c3)c2c1.Cl
Read-out: kinase activity
Action: inhibitor
Concentration: 1 µM
PRKD3 (Homo sapiens, UniProt O94806) — remaining activity: 96%.
TGFBR2 (Homo sapiens, UniProt P37173) — remaining activity: 114%.
For ACVR1 (Homo sapiens, UniProt Q04771): remaining activity read 112%.
For PAK6 (Homo sapiens, UniProt Q9NQU5): remaining activity read 98%.
It gave 103% for remaining activity (GAK (Homo sapiens, UniProt O14976)).
The remaining activity was 121% and 96% (ATR (Homo sapiens, UniProt Q13535)).

Excerpt of the above (block 1):
For MAP3K8 (Homo sapiens, UniProt P41279): remaining activity read 99.9%.
For Cyclin-dependent kinase 2, with cyclin A (CDK2, Homo sapiens, UniProt P24941): remaining activity read 98.4%.
For CAMK1D (Homo sapiens, UniProt Q8IU85): remaining activity read 104%.
For HIPK3 (Homo sapiens, UniProt Q9H422): remaining activity read 105%.
For DYRK4 (Homo sapiens, UniProt Q9NR20): remaining activity read 90.3%.
